{"data": "Measurements of several laboratories", "note": "Every numbered part comes from another study and shows a few of its results, in no order."}
{"data": "Block 1", "target": "Max dimerization protein 1, bHLH-zipper, MAX partner unstated (MXD1, Homo sapiens, UniProt Q05195, residues 56-136)", "method": "protein-binding microarray", "form": "double-stranded DNA, one strand shown", "matrix": "in vitro", "tested at": "not given", "notes": "k-mer, scored over probes, only values ≥0.25", "direction": "higher = stronger binding", "Residues (chain)": "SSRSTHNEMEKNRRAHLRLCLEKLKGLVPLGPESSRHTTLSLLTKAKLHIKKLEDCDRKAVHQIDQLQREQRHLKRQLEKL"}
{"Sequence": "CATGCCCC", "E-score": 0.39}
{"Sequence": "AAACACAT", "E-score": 0.311}
{"Sequence": "AACGTGAC", "E-score": 0.33}
{"Sequence": "ACGAGGAC", "E-score": 0.37}
{"Sequence": "CATGAGGC", "E-score": 0.292}
{"Sequence": "CAGGGGGA", "E-score": 0.272}
{"Sequence": "CTACACGC", "E-score": 0.348}
{"Sequence": "ACACGCCT", "E-score": 0.336}
{"Sequence": "ACGCGCCA", "E-score": 0.351}
{"Sequence": "CATGGATA", "E-score": 0.251}
{"Sequence": "CATGTACA", "E-score": 0.253}
{"Sequence": "CCACGTGA", "E-score": 0.483}
{"Sequence": "ACATGGGC", "E-score": 0.283}
{"Sequence": "CACGCGGC", "E-score": 0.449}
{"Sequence": "AATGTGTC", "E-score": 0.273}
{"Sequence": "CCCACCCA", "E-score": 0.351}
{"Sequence": "CTGTGCGC", "E-score": 0.261}
{"Sequence": "CACCACGC", "E-score": 0.396}
{"Sequence": "CTGCACAC", "E-score": 0.35}
{"Sequence": "ATCATGTC", "E-score": 0.274}
{"Sequence": "CATGCCAC", "E-score": 0.36}
{"Sequence": "CACCCTCC", "E-score": 0.283}
{"Sequence": "CGTGGGTA", "E-score": 0.306}
{"Sequence": "ATCCACAT", "E-score": 0.395}
{"data": "Block 2", "target": "RNA binding protein fox-1 homolog 2, RRM domain, GST-SBP tag (RBFOX2, Homo sapiens, UniProt O43251-10, residues 100-194)", "method": "RNA Bind-n-Seq", "form": "RNA", "matrix": "in vitro", "tested at": "365 nM", "notes": "natural RNA segment, single round, ends assumed", "relative to": "no-protein control", "direction": "higher = stronger binding", "Residues (chain)": "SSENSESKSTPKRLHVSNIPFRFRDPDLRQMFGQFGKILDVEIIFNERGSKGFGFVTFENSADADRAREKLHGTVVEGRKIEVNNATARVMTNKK"}
{"Sequence": "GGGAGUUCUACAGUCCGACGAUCCUUUAAAUUAUAUUUAACAUUUUCAUGCUUCUUAAUUUAACUUCACAUGUUGGGAAGUAGAUUCAGAAAGAUAGGAGAAAUACCCAGACUCUACCACUUCCGUGAGCUACUGGAAUUCUCGGGUGCCAA", "RBNS enrichment (R)": 0.397}
{"Sequence": "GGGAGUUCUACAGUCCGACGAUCAGCUGCAGGUGGCCUGCCACGCCUGCCUGGCCAAGUUUCUGUUCCCCUCCUCCUAAAGUCAAGGUGGGGUGGACAAUGACUUCCACAUCCCUCAGGGCAUAGAGUCCUUGUGGAAUUCUCGGGUGCCAA", "RBNS enrichment (R)": 0.627}
{"Sequence": "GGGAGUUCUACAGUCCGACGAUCCUGCUUCCUUGAUCACAGUUUCAAGAUGUGUUCUUGCUCUCAUCCUUCAUCAUUGACACUGACCCUAAAGAGGUCACUAGAUUUCUCCAAGGUCCUACCAUCUUAUAUGUUGGAAUUCUCGGGUGCCAA", "RBNS enrichment (R)": 0.239}
{"Sequence": "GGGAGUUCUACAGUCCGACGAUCAAGCCCCACCUUCAGGGACCACCUGGAAUGUGUGAGGGGCUGACAGCACAGUAACGUGCAUACAUAUCUGCAGGGCUGGAAUGGAAGCUUUAAAGGUGGUAGUGAUUUUUUGGAAUUCUCGGGUGCCAA", "RBNS enrichment (R)": 0.969}
{"Sequence": "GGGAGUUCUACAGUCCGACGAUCUAAGAAGUAAAAACUUAUUUGGAAGGCAGAGACAGACGGCAGCAGCUCACUUAGGCAGGAAUGGUCUUACCUUUUAAAAGCUUGUGGGAAACUGAAUUUGAAAUGACAAAUGGAAUUCUCGGGUGCCAA", "RBNS enrichment (R)": 0.39}
{"Sequence": "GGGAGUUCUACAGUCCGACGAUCUUAUUAAAUCAUGAGGGCAAAAGAGUGUAGAAUGGAAAAAAGUCUCUUGUAUCUAGAUACUUUAAAUAUGGGAGGCCCUUUAACUUAAUUGCCUUUAGUCAACCACUGGAUGGAAUUCUCGGGUGCCAA", "RBNS enrichment (R)": 0.344}
{"Sequence": "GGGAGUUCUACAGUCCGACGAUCUCACUCUCCUCAAGCCAGGACUACCGACCAGCCGGCUAUGGGCACAUUACUCUGUGGCUGCUGGAUUCUUUUCCAGCAUGGCCUGUGGCCUGUGUGAGGCAGAACUGGGAUGGAAUUCUCGGGUGCCAA", "RBNS enrichment (R)": 0.282}
{"Sequence": "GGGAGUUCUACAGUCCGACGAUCCGCACAGAGGUUUUGCUUUAUGCUGUAGAAUACCGACUUUCAUGAUGACAACUUGGUUUAUGCAUGAAUAUUGCAGUAUUUCCAUAUAGCAAAAUAACAUUUCUACCCAGUGGAAUUCUCGGGUGCCAA", "RBNS enrichment (R)": 0.774}
{"data": "Block 3", "target": "Ras GTPase-activating protein-binding protein 1, RRM domain (G3BP1, Homo sapiens, UniProt Q13283)", "method": "RNA Bind-n-Seq", "form": "RNA", "matrix": "in vitro", "tested at": "1 µM", "notes": "whole 134-nt RNA, ends assumed", "with": "150 mM KCl", "relative to": "input library", "direction": "higher = stronger binding", "chain of UniProt Q13283 (whole entry, looked up)": "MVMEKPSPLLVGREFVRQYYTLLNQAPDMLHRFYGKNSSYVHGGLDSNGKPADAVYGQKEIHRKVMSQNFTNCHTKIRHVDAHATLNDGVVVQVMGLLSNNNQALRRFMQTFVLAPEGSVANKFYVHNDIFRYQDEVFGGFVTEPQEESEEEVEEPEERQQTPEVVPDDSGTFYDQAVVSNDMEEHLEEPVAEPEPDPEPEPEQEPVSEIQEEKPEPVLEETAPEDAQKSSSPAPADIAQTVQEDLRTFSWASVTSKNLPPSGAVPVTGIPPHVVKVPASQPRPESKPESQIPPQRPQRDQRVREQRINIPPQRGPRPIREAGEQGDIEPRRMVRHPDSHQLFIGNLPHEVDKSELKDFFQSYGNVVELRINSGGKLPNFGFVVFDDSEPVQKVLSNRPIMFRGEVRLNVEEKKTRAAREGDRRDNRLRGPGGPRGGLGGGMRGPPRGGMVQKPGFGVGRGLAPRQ"}
{"Sequence": "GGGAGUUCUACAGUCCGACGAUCUAGUGAAAUUUCUAAUAUAUAUAUUUUUUUCUUUAGGAGAAGAAACGAAUGCAUCAGAUCAACAGAAUGAACCCCAGUUAGGCCUGAAAGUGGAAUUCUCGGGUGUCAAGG", "log2 enrichment": -0.819}
{"Sequence": "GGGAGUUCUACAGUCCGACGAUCGCAGGAAGUAAAAACAAAUGGAAAUGCUUCGGAUAGUGGCAGGGGUGGGGGUUGCUAAGGAAAGGGUGGGAUCGGAGUGGGUAAAGAGUUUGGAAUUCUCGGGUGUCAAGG", "log2 enrichment": 0.866}
{"Sequence": "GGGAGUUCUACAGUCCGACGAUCAGUCCUGUGCUACACAUCGUAUGUACCGAAUCGGGGCCCCGGGCCCCGGGCCCCGGGAAAGUAUUAUGUUACGCCGUUCGGAUCUGCACUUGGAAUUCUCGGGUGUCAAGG", "log2 enrichment": -1.1}
{"Sequence": "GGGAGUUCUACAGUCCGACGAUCCAAGUCCUGUGCUACACAUCGUAUGUACCGAAUCGGGAGGGAAAAAGGGUUUGGGAAAGUAUUAUGUUACGCCGUUCGGAUCUGCACUUCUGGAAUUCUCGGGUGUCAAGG", "log2 enrichment": 0.935}
{"Sequence": "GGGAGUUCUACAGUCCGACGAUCAAGUCCUGUGCUACACAUCGUAUGUACCGAAUCGGGGAAAGGGGAAAGGGGAGGGGAAAGUAUUAUGUUACGCCGUUCGGAUCUGCACUUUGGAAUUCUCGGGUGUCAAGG", "log2 enrichment": 1.25}
{"Sequence": "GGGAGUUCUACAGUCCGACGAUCGUCCUGUGCUACACAUCGUAUGUACCGAAUCGGGGUUUUUGGGGUGGGGAAAAAGGGGAAAGUAUUAUGUUACGCCGUUCGGAUCUGCACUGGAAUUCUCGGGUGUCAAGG", "log2 enrichment": 0.981}
{"Sequence": "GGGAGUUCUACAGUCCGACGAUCUCAAGUCCUGUGCUACACAUCGUAUGUACCGAAUCGGGAAGGGGAAGGAAGGGGAAAGUAUUAUGUUACGCCGUUCGGAUCUGCACUUCCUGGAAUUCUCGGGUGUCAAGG", "log2 enrichment": 0.536}
{"Sequence": "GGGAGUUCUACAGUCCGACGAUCCUGUGCUACACAUCGUAUGUACCGAAUCGGGAAAAAAAGGAAAAAAAGGGGAAAAAAAGGGAAAGUAUUAUGUUACGCCGUUCGGAUCUGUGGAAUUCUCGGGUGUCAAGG", "log2 enrichment": 0.134}
{"Sequence": "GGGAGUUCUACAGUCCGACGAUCUUUGAAGGUGAUUUCUGGCCCAAUGUGUUAGAAGAGAGCAUUAAGGAACUAGAACAAGAAGAAGAGGAGAGGAAAAAGGAAGAGAGCACUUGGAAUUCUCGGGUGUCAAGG", "log2 enrichment": -0.0885}
{"data": "Block 4", "target": "Centromere-binding protein 1, full length, N-terminal tag (CBF1, Saccharomyces cerevisiae, UniProt P17106, residues 1-351)", "method": "protein-binding microarray", "form": "double-stranded DNA, one strand shown", "matrix": "in vitro", "tested at": "0.8 µM", "notes": "whole 60-bp probe, no competitor", "direction": "higher = stronger binding", "chain of UniProt P17106 (whole entry, looked up)": "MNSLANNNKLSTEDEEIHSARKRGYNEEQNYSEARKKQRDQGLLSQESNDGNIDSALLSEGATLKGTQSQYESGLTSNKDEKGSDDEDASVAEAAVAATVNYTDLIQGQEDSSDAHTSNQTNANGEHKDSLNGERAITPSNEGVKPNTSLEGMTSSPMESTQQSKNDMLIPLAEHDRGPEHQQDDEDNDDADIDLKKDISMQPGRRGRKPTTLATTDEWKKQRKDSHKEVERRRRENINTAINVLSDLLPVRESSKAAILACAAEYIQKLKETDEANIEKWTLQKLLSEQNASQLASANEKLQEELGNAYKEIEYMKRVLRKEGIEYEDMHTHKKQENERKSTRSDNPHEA"}
{"Sequence": "GAATCGACCGATCCTGATGTCTTCGGATGGATTTAGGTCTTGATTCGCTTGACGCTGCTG", "fluorescence intensity [a.u.]": 476}
{"Sequence": "CCTAACTACTATAATCACCCACGATAGCTTCGTACAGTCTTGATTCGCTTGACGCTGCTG", "fluorescence intensity [a.u.]": 511}
{"Sequence": "GAACACGCGTCCGAACGCGTGAGCATATATGCATAGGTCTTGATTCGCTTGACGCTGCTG", "fluorescence intensity [a.u.]": 716}
{"Sequence": "CTAATCAACAACCGTCATGCAGCTGTTGTATCATTCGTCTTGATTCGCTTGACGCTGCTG", "fluorescence intensity [a.u.]": 499}
{"Sequence": "CTAATTAAAGATGAACAGGTGAGACAATATCAATTCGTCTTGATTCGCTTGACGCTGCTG", "fluorescence intensity [a.u.]": 603}
{"Sequence": "TGTACGAAGCTATTTCGCATGCATATAGTAGTTAGGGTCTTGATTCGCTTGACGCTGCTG", "fluorescence intensity [a.u.]": 554}
{"Sequence": "GAATGGCAACAGTACATCAGAAGAATATGTCGATAGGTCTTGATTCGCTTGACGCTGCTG", "fluorescence intensity [a.u.]": 565}
{"Sequence": "GAATTATAATTCGCTCTCATGATCACCACATCTTAGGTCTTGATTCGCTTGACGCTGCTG", "fluorescence intensity [a.u.]": 667}
{"Sequence": "GAATGAATCAATAAGAAGGTGATCAGGTAGTTCTAGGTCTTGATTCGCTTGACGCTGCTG", "fluorescence intensity [a.u.]": 507}
{"Sequence": "TGTACGAAGCTATGTCATGTGCCTATAGTAGTTAGGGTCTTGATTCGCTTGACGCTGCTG", "fluorescence intensity [a.u.]": 1680}
{"Sequence": "GAACTAAAGAAATGTCTGGTGAAAATATCAATATAGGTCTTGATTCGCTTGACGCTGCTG", "fluorescence intensity [a.u.]": 554}
{"Sequence": "CTAAACTGAAATTAAGGTATCACGAGACACATGTTCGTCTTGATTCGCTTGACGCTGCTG", "fluorescence intensity [a.u.]": 3800}
{"Sequence": "GAAGTATATGATTGCCACGAAATAATCGTCGATTAGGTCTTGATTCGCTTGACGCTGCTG", "fluorescence intensity [a.u.]": 517}
{"Sequence": "GAACACCATGGATTGCTGATGGTAGCTACAGGTTAGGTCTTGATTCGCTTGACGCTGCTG", "fluorescence intensity [a.u.]": 526}
{"Sequence": "GAAGAGTCATTTGGTCATGAGAGTAGCTATGTTTAGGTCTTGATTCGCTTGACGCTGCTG", "fluorescence intensity [a.u.]": 633}
{"Sequence": "GAACTTTGTGTGTACCATCACGTTTTTTGTTAATAGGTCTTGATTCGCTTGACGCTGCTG", "fluorescence intensity [a.u.]": 2130}
{"Sequence": "GAATCTCCCACTTTATTCGTGATTTAGTGTAGATAGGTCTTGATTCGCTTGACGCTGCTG", "fluorescence intensity [a.u.]": 537}
{"Sequence": "GAAACTGGCAGCAATGGTCATCAGTGGGCTCATTAGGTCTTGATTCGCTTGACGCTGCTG", "fluorescence intensity [a.u.]": 505}
{"Sequence": "CTAGATGCTTGGGATCACGTATGCCGTTAACTCTTCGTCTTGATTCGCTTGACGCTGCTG", "fluorescence intensity [a.u.]": 603}
{"note": "Repeated from above (block 4):"}
{"Sequence": "GAACACGCGTCCGAACGCGTGAGCATATATGCATAGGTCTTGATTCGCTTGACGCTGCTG", "fluorescence intensity [a.u.]": 716}
{"Sequence": "GAATCTCCCACTTTATTCGTGATTTAGTGTAGATAGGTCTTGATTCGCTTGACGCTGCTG", "fluorescence intensity [a.u.]": 537}
{"Sequence": "GAATGAATCAATAAGAAGGTGATCAGGTAGTTCTAGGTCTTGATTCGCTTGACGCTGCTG", "fluorescence intensity [a.u.]": 507}
